Published values from different studies.
Each line is one published result; not all experiments were run side by side.

Structure (SMILES) | target or system | test system | setting | measurement | value
CCCCCCCC(=O)N[C@@H](CCCCN)C(=O)N[C@@H](CCCCN)C(=O)N[C@@H](C)C(=O)N[C@@H](CC(C)C)C(=O)N[C@@H](CCCCN)C(=O)N[C@@H](CC(C)C)C(=O)N[C@@H](C)C(=O)N[C@@H](CCCCN)C(=O)N[C@@H](CCCCN)C(=O)N1CCC[C@H]1C(=O)N[C@@H](CC(C)C)C(=O)N[C@@H](CCCCN)C(=O)N[C@@H](CC(C)C)C(=O)N[C@@H](CC(C)C)C(=O)N[C@@H](CCCCN)C(N)=O | – | mouse ICR CD1 female, whole blood | intravenous bolus, 10 mg/kg | Tmax | 1.8 min
O=c1c2cc(Cl)c(CO)cc2[nH]c(=S)n1Cc1cncnc1 | – | mouse, plasma | oral, 50 mg/kg | Tmax | 15 min
Clc1nc[n]([Au][PH](c2ccccc2)(c2ccccc2)c2ccccc2)c1Cl | – | NCG mouse, plasma | intraperitoneal, 10 mg/kg | Tmax | 90 min
C(#Cc1c[nH]c2nccc(-c3ccncc3)c12)c1cccnc1 | – | mouse C57BL/6 male, plasma | oral, 20 mg/kg | Tmax | 15 min
N#C[C@@]1(n2ccc(N)nc2=O)O[C@H](CO)[C@@H](O)[C@H]1O | – | CD-1 mouse, plasma | oral, 30 mg/kg | Tmax | 30 min
NC(=NCc1ccccc1)NC(=O)c1nc(Cl)c(N)nc1N | Plasmodium falciparum | 3D7 | – | IC50 | 0.501 µM
COc1cccc2c1CCCC2CCCN1CCN(C2CCCCC2)CC1 (stereo not shown) | – | CD-1 mouse, male, plasma | intraperitoneal, 0.3 mg/kg | Tmax | 30 min
NC(=O)c1cccc(-c2cc(OC(=O)NC3CCCCC3)ccc2O)c1 | – | mouse, plasma | intravenous, 10 mg/kg | Tmax | 4.8 min
CC/C(=C(\c1ccccc1)c1ccc(OCCN(C)C)cc1)c1ccccc1 | – | CD-1 mouse, male, lung | intraperitoneal, 10 mg/kg | Tmax | 360 min
CN(C)C1(CNC(=O)c2ccc3c(c2)CCN3C(=O)c2ccccc2)CCOCC1 | – | ICR mouse, male, plasma | intraperitoneal, 30 mg/kg | Tmax | 60 min
Cc1ncsc1-c1ccc([C@H](CC(=O)NCCOCCOCCOCCOCCOCCC(=O)N2CCC(Nc3cc(C(=O)NC[C@H](O)CN4CCc5ccccc5C4)ncn3)CC2)NC(=O)[C@@H]2C[C@@H](O)CN2C(=O)[C@@H](NC(=O)C2(F)CC2)C(C)(C)C)cc1 | – | male Swiss albino mouse, plasma | intraperitoneal, 50 mg/kg | Tmax | 30 min
Cc1ccc(F)c2cc(C(=O)N[C@@H]3CCC[C@H](N4CC[C@H](N(C)S(C)(=O)=O)C4)C3)[nH]c12 | – | CD1 mouse | oral, 30 mg/kg | Tmax | 96 min
COc1cc2c(cc1OC)CN(CCc1ccc(NC(=O)c3cccc4c(=O)c5cccc(OC)c5[nH]c34)cc1)CC2 | – | CD-1 mouse, male, lung | intraperitoneal, 3 mg/kg | Tmax | 60 min
CN1[C@@H]2CC[C@H]1C[C@@H](OC(=O)c1cc(Cl)cc(Cl)c1)C2 | Plasmodium falciparum | 7G8 | – | IC50 | 5.01 µM
CCC[C@@](N)(CO)CCc1ccc(OCCCCCC(C)C)cc1 | – | C57BL/6 mouse, plasma | intraperitoneal, 10 mg/kg | Tmax | 15 min
CN[C@H]1CC[C@@H](c2ccc(Cl)c(Cl)c2)c2ccccc21 | – | CD-1 mouse, male, plasma | intraperitoneal, 1 mg/kg | Tmax | 30 min

Some of these lines once more:
Structure (SMILES) | target or system | test system | setting | measurement | value
COc1cccc2c1CCCC2CCCN1CCN(C2CCCCC2)CC1 (stereo not shown) | – | CD-1 mouse, male, plasma | intraperitoneal, 0.3 mg/kg | Tmax | 30 min
NC(=O)c1cccc(-c2cc(OC(=O)NC3CCCCC3)ccc2O)c1 | – | mouse, plasma | intravenous, 10 mg/kg | Tmax | 4.8 min
